Experimental data of several laboratories.
Each numbered part is a random draw from the data of one study; scales do not carry over between parts.

Block 1
Target: Prothrombin, mature alpha-thrombin (F2, Homo sapiens, UniProt P00734)
Method: aptamer microarray, sandwich
Form: DNA with 2'F-ANA
Matrix: in vitro
Concentration: 200 nM
Notes: whole 15-mer aptamer, many near background
Added: Cy3 exosite-II aptamer, 400 nM
Reading: higher = stronger binding
Measurement: mean fluorescence intensity
Sequence: GGTTGGTGTGGTTGG
2'F-ANA at 2 6 7 10 13 14: 85 a.u.
2'F-ANA at 1 2 3 7 8 9 12 13 15: 462 a.u.
2'F-ANA at 1 2 5 6 8 9 10 14: 51.2 a.u.
2'F-ANA at 2 3 6 7 12 14: 382 a.u.
2'F-ANA at 4 5 8 9 10 12 13 14: 45.6 a.u.

Block 2
Target: Sal-like protein 4, full length isoform B (SALL4, Homo sapiens, UniProt Q9UJQ4-2, residues 1-616)
Method: universal PBM
Form: double-stranded DNA, one strand shown
Matrix: in vitro
Concentration: not given
Notes: 8-mer, flanks averaged, mean of replicates
Reading: higher = stronger binding
Measurement: E-score
CATAAGCG: 0.0218
GGCCAAAA: 0.0261
ACTTGCGA: -0.0566
GACTTAAC: -0.0473
GACTGCGC: -0.141

Block 3
Target: Histone acetyltransferase KAT6A, both winged helices, GST fusion (KAT6A, Homo sapiens, UniProt Q92794, residues 1-181)
Method: protein binding microarray
Form: double-stranded DNA, one strand shown
Matrix: in vitro
Concentration: not given
Notes: 8-mer, flanks averaged, mean of 2 arrays, mostly near background
Baseline: not given
Reading: higher = stronger binding
Measurement: E-score
Target sequence (chain): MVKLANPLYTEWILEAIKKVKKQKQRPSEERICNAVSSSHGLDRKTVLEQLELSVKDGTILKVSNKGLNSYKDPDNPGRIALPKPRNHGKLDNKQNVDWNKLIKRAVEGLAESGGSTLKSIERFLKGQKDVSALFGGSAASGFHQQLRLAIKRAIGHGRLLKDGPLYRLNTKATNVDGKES
AGAATTTG: -0.121
CTCGCATC: 0.0568
CTGCCGAC: 0.117
CCTCGCGC: 0.265
CGGCCAAA: 0.131
GCACATGA: -0.00123

Single results of other studies
PhoQ, residues 284 288 289 292 302 303 SLSLLA — fold induction (PhoP, residues 12 14 15 18 19 SQCLL (Escherichia coli, UniProt P23836); Sort-seq, refers to: YFP reporter; E. coli; PhoQ-PhoP variant library, added: 10 µM Mg2+; baseline: high Mg2+ state, higher = stronger signaling): 1.65

Repeated from above (block 3):
CCTCGCGC: 0.265
GCACATGA: -0.00123
